Measurements collected from several papers.
Each numbered part is a random draw from the data of one study; scales do not carry over between parts.

Series 1
Target: Interferon regulatory factor 5, full length, phosphomimetic (IRF5, Homo sapiens, UniProt Q13568-2, residues 1-514, K96S/S451D/S453D/S456D/S462D)
Method: protein-binding microarray
Form: double-stranded DNA, one strand shown
Matrix: in vitro
Concentration: 250 nM
Notes: 60-bp whole probe
Added: salmon DNA 0.4 mg/ml
Baseline: random background probes
Direction: higher = stronger binding
Constant ends, left off below: GCCTAGCAC … GTCTTGATTCGCTTGACGCTGCTG
`TCTAATTAGAATTTAAAACAGTGCTAG` has a log fluorescence of 0.482 z-score.
`GACGGTCTCCTTATCCTCACGTGCTAG` has a log fluorescence of 0.0677 z-score.
With `CCTCTTTTTTGTTCCACGCCGTGCTAG` the log fluorescence was 0.786 z-score.
With `TCATGTCCCTGTTTCTAACTGTGCTAG` the log fluorescence was 0.553 z-score.
For `TTGGGTTTCGACACTGGGTTAGTGCTA`, the log fluorescence was 4.75 z-score.
The log fluorescence of `TCTACTTCTCTTTTGGCTTTGTGCTAG` is reported as 1.3 z-score.
For `ATAGGTTTCGGGACTGGGTTAGTGCTA`, the log fluorescence was 5.35 z-score.
`TTAGATTTCAGTATCGCTTAGTGCTAG` gave a log fluorescence of 5.05 z-score.
With `GACGGCTTCGGGTTTCGGGACGTGCTA` the log fluorescence was 1.72 z-score.
For `GCCCATCTCTGCTCCTTCTGGTGCTAG`, the log fluorescence was -0.329 z-score.
`TCAACTCCCTCTCTGGCACTGTGCTAG` has a log fluorescence of -0.0605 z-score.
With `TTATGTTTCGGTTCCGGTTAGTGCTAG` the log fluorescence was 10.4 z-score.
With `TTTTCAGCATCGCTCAGCACGTGCTAG` the log fluorescence was 1.24 z-score.
For `TTAGGTTTCCACTATCGGTTAGTGCTA`, the log fluorescence was 7.63 z-score.
`TTTTCCAGAGGCCCAGCCAGGTGCTAG` gave a log fluorescence of 0.139 z-score.
`TTAGGTTCCGGATTCGGTTAGTGCTAG` has a log fluorescence of 0.71 z-score.
`GACGAACTGAAACTGGAGACGTGCTAG` has a log fluorescence of 1.43 z-score.
`TTAGGACCGGGGTTTCGGTTAGTGCTA` gave a log fluorescence of 6.4 z-score.
`TCATCACTCAATCTCAAACTGTGCTAG` gave a log fluorescence of 0.557 z-score.
For `TCACATTTAATTATATGACTGTGCTAG`, the log fluorescence was 0.692 z-score.
`TTAGGTCTTGGTTTCGGTTAGTGCTAG` gave a log fluorescence of 9.1 z-score.
`TTTCGTATCTTCATTGTCATGTGCTAG` gave a log fluorescence of 10.1 z-score.
With `CTTTTTTTGGTAATAGTGAAGTGCTAG` the log fluorescence was 1.3 z-score.
`AATCTTTTCACTTTCTTTAAGTGCTAG` has a log fluorescence of 4.25 z-score.
With `GACGGTATCCTTAACCTGACGTGCTAG` the log fluorescence was -0.204 z-score.

Series 2
Organism: Saccharomyces cerevisiae
Observed: peptide binding
Method: yeast competitive growth sequencing
Form: peptide
Strain: cyclin-Cln2 fusion strain
Concentration: concentration not given
Notes: library 2
Direction: direction not given
For `GFGFLLFICKLTF`, the binding score was 0.679.
With `LLRRLQDVANDRG` the binding score was 0.661.
`PSSMRKICTYFHR` has a binding score of 1.37.

Series 3
Target: Histone acetyltransferase KAT6A, both winged helices, GST fusion (KAT6A, Homo sapiens, UniProt Q92794, residues 1-181)
Method: protein binding microarray
Form: double-stranded DNA, one strand shown
Matrix: in vitro
Concentration: not given
Notes: 8-mer, flanks averaged, mean of 2 arrays, mostly near background
Baseline: not given
Direction: higher = stronger binding
Residues (chain): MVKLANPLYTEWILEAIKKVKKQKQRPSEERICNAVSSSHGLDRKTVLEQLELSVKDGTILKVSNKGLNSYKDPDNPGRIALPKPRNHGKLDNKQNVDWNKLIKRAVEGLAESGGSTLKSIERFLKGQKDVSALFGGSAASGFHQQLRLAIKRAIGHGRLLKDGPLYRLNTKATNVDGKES
`ATGAATGC` has an E-score of 0.0649.
With `CGAAACAA` the E-score was 0.0131.
`ATAACTCG` has an E-score of 0.004.
For `AGTGGGTG`, the E-score was -0.248.
The E-score of `AAGCGCCA` is reported as 0.105.
The E-score of `GTCGACCA` is reported as 0.123.
`ATAATAAA` has an E-score of 0.0885.
The E-score of `GCTCCCAA` is reported as -0.22.
The E-score of `TGCTCTAA` is reported as -0.0629.
For `GGGCCATA`, the E-score was 0.0598.
With `ATGATGGG` the E-score was -0.175.
`CATTTTAC` has an E-score of 0.0455.
The E-score of `CAGCGGCA` is reported as 0.188.
`AAAGGCGA` gave an E-score of -0.0518.
With `ATTTAGGC` the E-score was -0.0898.
With `AGAGAAAT` the E-score was 0.0516.
The E-score of `AGAGCCCC` is reported as -0.161.
The E-score of `CAGACCCA` is reported as -0.211.

Series 4
Target: Sal-like protein 4, full length isoform A (SALL4, Homo sapiens, UniProt Q9UJQ4, residues 1-1053)
Chain of UniProt Q9UJQ4 (whole entry, looked up): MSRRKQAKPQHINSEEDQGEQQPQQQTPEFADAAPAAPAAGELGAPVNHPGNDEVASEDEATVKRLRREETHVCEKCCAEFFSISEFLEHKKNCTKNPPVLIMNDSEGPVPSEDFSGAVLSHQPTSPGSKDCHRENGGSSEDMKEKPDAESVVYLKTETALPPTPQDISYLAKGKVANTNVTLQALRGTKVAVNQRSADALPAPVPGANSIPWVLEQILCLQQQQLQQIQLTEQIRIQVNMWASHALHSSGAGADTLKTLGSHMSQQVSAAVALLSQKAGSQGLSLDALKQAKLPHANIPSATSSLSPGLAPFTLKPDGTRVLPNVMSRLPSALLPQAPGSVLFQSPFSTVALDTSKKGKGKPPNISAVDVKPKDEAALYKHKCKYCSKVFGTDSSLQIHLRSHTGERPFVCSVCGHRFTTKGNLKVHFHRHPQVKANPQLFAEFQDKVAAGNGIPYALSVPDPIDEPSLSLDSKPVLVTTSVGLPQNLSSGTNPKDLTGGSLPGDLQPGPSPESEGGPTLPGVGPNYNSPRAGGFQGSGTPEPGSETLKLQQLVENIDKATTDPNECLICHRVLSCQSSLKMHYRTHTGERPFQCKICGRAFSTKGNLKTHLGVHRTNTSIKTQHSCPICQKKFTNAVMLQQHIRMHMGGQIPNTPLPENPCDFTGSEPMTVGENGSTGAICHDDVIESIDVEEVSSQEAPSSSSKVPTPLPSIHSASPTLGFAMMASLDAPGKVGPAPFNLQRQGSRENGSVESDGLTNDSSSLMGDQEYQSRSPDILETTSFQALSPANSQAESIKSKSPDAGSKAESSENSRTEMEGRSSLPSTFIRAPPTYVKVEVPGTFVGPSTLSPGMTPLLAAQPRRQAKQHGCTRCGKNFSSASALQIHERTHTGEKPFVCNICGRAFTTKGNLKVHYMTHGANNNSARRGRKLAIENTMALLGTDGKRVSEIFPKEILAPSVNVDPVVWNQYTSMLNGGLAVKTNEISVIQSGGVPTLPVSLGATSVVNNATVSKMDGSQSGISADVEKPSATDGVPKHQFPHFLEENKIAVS
Method: universal PBM
Form: double-stranded DNA, one strand shown
Matrix: in vitro
Concentration: 600 nM
Notes: 8-mer, flanks averaged, mean of replicates
Direction: higher = stronger binding
The E-score of `ATGTAAAA` is reported as 0.323.
`ACGTTGTG` has an E-score of 0.0447.
The E-score of `ACGGCAAG` is reported as -0.1.
For `GTTAAACA`, the E-score was 0.223.
`CGTATCCC` has an E-score of -0.157.
For `GCAACGCC`, the E-score was -0.282.
`GGCGCACA` gave an E-score of -0.21.
For `CTACGCAA`, the E-score was -0.046.
The E-score of `ACCAAGCG` is reported as -0.213.
`ACGACATC` gave an E-score of -0.184.
The E-score of `CGTACCCA` is reported as -0.134.
For `AGTGCAGG`, the E-score was -0.239.
The E-score of `GATGCGTA` is reported as 0.0758.
`GATATGGC` gave an E-score of -0.0684.
`AATAACGA` has an E-score of 0.275.
`CATTTCAG` has an E-score of 0.118.
With `AGCGGACG` the E-score was -0.286.
With `CCGCGGCG` the E-score was -0.256.
With `CACAGCGC` the E-score was -0.248.
For `CTTCCGGA`, the E-score was -0.153.
`TAAGACTA` gave an E-score of 0.106.
The E-score of `AGAAGGGA` is reported as -0.259.
`GACTGCTA` has an E-score of -0.0282.

Series 5
Target: Ras GTPase-activating protein-binding protein 1, C-terminal RGG region (G3BP1, Homo sapiens, UniProt Q13283)
Chain of UniProt Q13283 (whole entry, looked up): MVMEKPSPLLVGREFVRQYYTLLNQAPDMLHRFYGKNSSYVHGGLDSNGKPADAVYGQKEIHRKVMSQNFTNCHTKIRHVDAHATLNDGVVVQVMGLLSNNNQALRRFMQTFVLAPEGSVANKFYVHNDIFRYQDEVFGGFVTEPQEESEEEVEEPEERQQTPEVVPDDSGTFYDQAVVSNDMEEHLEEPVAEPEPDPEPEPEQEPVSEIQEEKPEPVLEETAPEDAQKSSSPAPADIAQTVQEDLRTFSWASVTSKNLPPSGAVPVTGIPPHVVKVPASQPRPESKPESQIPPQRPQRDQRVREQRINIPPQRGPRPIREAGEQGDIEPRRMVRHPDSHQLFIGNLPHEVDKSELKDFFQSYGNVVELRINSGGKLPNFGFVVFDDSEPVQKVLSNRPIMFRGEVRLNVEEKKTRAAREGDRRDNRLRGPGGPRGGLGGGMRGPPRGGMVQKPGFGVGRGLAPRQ
Method: RNA Bind-n-Seq
Form: RNA
Matrix: in vitro
Concentration: 1 µM
Notes: whole 134-nt RNA, ends assumed
Added: 150 mM KCl
Baseline: input library
Direction: higher = stronger binding
`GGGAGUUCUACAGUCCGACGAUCCAAGUCCUGUGCUACACAUCGUAUGUACCGAAUCGGUUUUUGGAAAAAAAGGAGGAAAGUAUUAUGUUACGCCGUUCGGAUCUGCACUUCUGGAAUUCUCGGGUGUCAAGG` has a log2 enrichment of -1.86.
`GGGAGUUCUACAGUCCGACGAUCCACAGACAAGACGCACCCACACAGACACAGAGGGAAGGGGUUGGGAUGGGGACAGGGUGCACAGCAGGGCGGGGUAGGACCCCAGCCCCUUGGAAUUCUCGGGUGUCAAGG` gave a log2 enrichment of -0.25.
The log2 enrichment of `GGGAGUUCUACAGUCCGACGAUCCAAGUCCUGUGCUACACAUCGUAUGUACCGAAUCGGGGUUGGGUUGGGGUUGGGGAAAGUAUUAUGUUACGCCGUUCGGAUCUGCACUUCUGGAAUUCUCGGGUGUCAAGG` is reported as 2.76.
`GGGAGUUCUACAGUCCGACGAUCAGUCCUGUGCUACACAUCGUAUGUACCGAAUCGGGUUUUUGGGUUUUUGGGUUUGGGAAAGUAUUAUGUUACGCCGUUCGGAUCUGCACUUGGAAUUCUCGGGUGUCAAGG` has a log2 enrichment of 0.565.
With `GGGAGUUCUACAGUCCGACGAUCGUCCUGUGCUACACAUCGUAUGUACCGAAUCGGCCCCCGGGCCCCCGGGGCCCCCGGGAAAGUAUUAUGUUACGCCGUUCGGAUCUGCACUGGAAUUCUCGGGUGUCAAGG` the log2 enrichment was -1.4.
`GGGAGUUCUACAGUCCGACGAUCAGUCCUGUGCUACACAUCGUAUGUACCGAAUCGGGGUUUUGGGUUUUGGUUUUGGGGAAAGUAUUAUGUUACGCCGUUCGGAUCUGCACUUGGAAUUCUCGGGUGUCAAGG` has a log2 enrichment of -0.572.
For `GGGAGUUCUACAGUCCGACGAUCUGGCCCUGGUGGCAUGCGGGGAGGAAGAGGUGGCCUCAUGGAUCAUGGUGGUCCCGGUGGAAUGUUCAGAGGUGGCCGUGGUGGAGACAGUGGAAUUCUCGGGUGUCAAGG`, the log2 enrichment was 2.62.
The log2 enrichment of `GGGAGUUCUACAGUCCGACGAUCCAAGUCCUGUGCUACACAUCGUAUGUACCGAAUCGGUUUUUGGAAAAAAAGGUGGAAAGUAUUAUGUUACGCCGUUCGGAUCUGCACUUCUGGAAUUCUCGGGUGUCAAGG` is reported as -1.59.
For `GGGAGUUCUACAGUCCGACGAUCUCCUGUGCUACACAUCGUAUGUACCGAAUCAAAUUUUUUUAAAUUUUUUUAAACCCAAAAAAGUAUUAUGUUACGCCGUUCGGAUCUGCAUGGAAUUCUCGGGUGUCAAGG`, the log2 enrichment was -1.17.
For `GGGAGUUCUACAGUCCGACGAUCAGUCCUGUGCUACACAUCGUAUGUACCGAAUCGGGGUUUUUGGGGUUUGGGGUGGGGAAAGUAUUAUGUUACGCCGUUCGGAUCUGCACUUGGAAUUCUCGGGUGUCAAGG`, the log2 enrichment was 3.05.

Excerpt of the above (series 3):
With `AGAGAAAT` the E-score was 0.0516.
`ATAACTCG` has an E-score of 0.004.
With `ATTTAGGC` the E-score was -0.0898.
`ATAATAAA` has an E-score of 0.0885.
`ATGAATGC` has an E-score of 0.0649.
The E-score of `CAGACCCA` is reported as -0.211.
The E-score of `AGAGCCCC` is reported as -0.161.
The E-score of `AAGCGCCA` is reported as 0.105.
